# Results from different studies.
# Every numbered part comes from another study and shows a few of its results, in no order.

# Set 1
# Target: Interferon regulatory factor 5, full length, phosphomimetic (IRF5, Homo sapiens, UniProt Q13568-2, residues 1-514, K96S/S451D/S453D/S456D/S462D)
# Technique: protein-binding microarray
# Molecule type: double-stranded DNA, one strand shown
# Matrix: in vitro
# Concentration: 250 nM
# Notes: 60-bp whole probe
# Together with: salmon DNA 0.4 mg/ml
# Reference: random background probes
# Direction: higher = stronger binding
# Shared flanks, not repeated: GCCTAGCAC … GTGCTAGGTCTTGATTCGCTTGACGCTGCTG
Oligonucleotide,log fluorescence [z-score]
TTAGAACTGAGTATGGATTA,0.0931
GACGGTTTCCTAGTGCTGAC,-0.143
TTAGGTATCCTTCTCCCTTA,0.456
GACGGACTGGGTTTCGGGCC,1.61
TCAGCTTTCTTTATGTAACT,1.38
TCACATCTCTCTTAAATACT,0.63
GACGGTCTCCTTTTCCTAAC,0.116
TTAGAACTGAGTAGCGATTA,0.287

# Set 2
# Target: Sal-like protein 4, full length isoform B (SALL4, Homo sapiens, UniProt Q9UJQ4-2, residues 1-616)
# Technique: universal PBM
# Molecule type: double-stranded DNA, one strand shown
# Matrix: in vitro
# Concentration: not given
# Notes: 8-mer, flanks averaged, mean of replicates
# Direction: higher = stronger binding
Oligonucleotide,E-score
CTGCCTCA,-0.167
ATAAGGGA,0.148
ATCGGTGG,-0.164
ACTCGGCG,-0.292
AGATATTG,0.321
AAGTGGAC,-0.0886
CCGAATAA,0.129
ATGACATC,0.156

# Set 3
# Target: Protein C-ets-1 (ETS1, Homo sapiens, UniProt P14921, residues 1-441, Y397A, full length assumed)
# Technique: protein-binding microarray
# Molecule type: double-stranded DNA, one strand shown
# Matrix: in vitro
# Concentration: not given
# Notes: k-mer, scored over probes, only values ≥0.25
# Direction: higher = stronger binding
# Construct (chain): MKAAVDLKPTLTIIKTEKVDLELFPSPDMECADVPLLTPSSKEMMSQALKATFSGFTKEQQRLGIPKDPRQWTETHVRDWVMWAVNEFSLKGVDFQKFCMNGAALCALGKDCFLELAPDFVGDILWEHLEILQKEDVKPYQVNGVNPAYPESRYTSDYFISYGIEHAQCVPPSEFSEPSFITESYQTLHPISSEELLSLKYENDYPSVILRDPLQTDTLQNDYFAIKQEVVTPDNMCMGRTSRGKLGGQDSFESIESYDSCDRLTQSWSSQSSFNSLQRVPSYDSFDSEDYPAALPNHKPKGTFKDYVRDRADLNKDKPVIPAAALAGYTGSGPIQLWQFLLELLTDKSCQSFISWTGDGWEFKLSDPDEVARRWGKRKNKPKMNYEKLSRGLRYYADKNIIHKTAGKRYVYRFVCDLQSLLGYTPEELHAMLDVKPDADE
Oligonucleotide,E-score
TTCCGGAA,0.485
GCACCCAC,0.265
CGACACGA,0.305
CAATCATA,0.268
ACAGGAAG,0.299
CAACGTCG,0.252
GTTAACAA,0.268
CCGCACAG,0.266

# Further values, each from its own experiment
Molecule,target,read-out,molecule type,concentration,quantity,value
MAMTGLPQA,"HLA class I histocompatibility antigen, A alpha chain, allele A*25:01 (Homo sapiens, UniProt P04439)",peptide-MHC binding,peptide,concentration not given,binding,inactive
